Measured values pooled from the literature.
Numbered parts are unrelated; each lists some results of a single study. Substitutions count along the parent as printed.
Sequence of UniProt P31749 (whole entry, looked up): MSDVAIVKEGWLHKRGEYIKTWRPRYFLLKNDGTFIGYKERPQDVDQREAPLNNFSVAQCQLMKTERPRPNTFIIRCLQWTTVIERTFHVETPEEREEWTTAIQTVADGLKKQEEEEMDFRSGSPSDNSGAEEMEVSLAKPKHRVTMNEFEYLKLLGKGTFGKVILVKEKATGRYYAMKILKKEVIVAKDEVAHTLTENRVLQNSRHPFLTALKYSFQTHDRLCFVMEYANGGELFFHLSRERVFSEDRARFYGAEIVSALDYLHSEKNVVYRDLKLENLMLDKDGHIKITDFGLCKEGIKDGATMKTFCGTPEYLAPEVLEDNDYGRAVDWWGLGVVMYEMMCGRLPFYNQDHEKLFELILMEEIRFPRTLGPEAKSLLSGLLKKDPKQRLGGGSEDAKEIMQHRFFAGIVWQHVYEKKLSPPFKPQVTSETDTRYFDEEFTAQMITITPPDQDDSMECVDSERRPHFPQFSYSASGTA

Series 1 — Change: H34M; method: DHFR PCA, deep sequencing; medium: yeast; relative to: wild-type fitted maximum; reading: higher = stronger binding
Target: ABI1, truncated, D143A, DHFR fusion (Arabidopsis thaliana)
Setting: methotrexate growth selection, single substitutions
Starting sequence: PYL1, truncated, DHFR fusion (Arabidopsis thaliana); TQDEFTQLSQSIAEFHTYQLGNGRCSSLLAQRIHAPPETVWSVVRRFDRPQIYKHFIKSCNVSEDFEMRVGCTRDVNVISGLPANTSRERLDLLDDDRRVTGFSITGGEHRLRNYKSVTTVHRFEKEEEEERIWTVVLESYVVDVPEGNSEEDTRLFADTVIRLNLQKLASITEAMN
with | relative binding score [%]
(+)-ABA 0.0091 µM | 45.7
(+)-ABA 0 µM | 37.9
(+)-ABA 4.8 µM | 75.7
(+)-ABA 17 µM | 82.6
(+)-ABA 200 µM | 104
(+)-ABA 1.4 µM | 60.8

Series 2 — method: protein-binding microarray; molecule type: double-stranded DNA, one strand shown; medium: in vitro; concentration: 250 nM; setting: 60-bp whole probe; with: salmon DNA 0.4 mg/ml; relative to: random background probes; reading: higher = stronger binding; shared flanks, not repeated: GCCTAGCAC … GTCTTGATTCGCTTGACGCTGCTG
Target: Interferon regulatory factor 5, full length, phosphomimetic (IRF5, Homo sapiens, UniProt Q13568-2, residues 1-514, K96S/S451D/S453D/S456D/S462D)
Strand | log fluorescence [z-score]
GACGATTCCAGTTTCCAGACGTGCTAG | 0.26
GACGGACTGGGGAATCGGGACGTGCTA | -0.513
TCATTTCTGTTTTTGCTACTGTGCTAG | 4.15
GACGATTTCGGGACTGGAGACGTGCTA | 1.51
GACGGTATCGGCATCGGGACGTGCTAG | 1.41
TCATCTTTCTCTGCTACCACTGTGCTA | 1.56
TACGATTTCAGTTTCGAGACGTGCTAG | 7.26
TTAGGTATCGGGTTTCGGTTTGTGCTA | 8.51

Series 3 — target: CCNA2, cyclin fold, Cln2 fusion (human); method: yeast growth competition, sequencing; medium: yeast; setting: strong parent motif; relative to: not given; reading: higher = stronger binding
Starting sequence: CDKN1B docking peptide (human); PSACRNLFGPVDH; partner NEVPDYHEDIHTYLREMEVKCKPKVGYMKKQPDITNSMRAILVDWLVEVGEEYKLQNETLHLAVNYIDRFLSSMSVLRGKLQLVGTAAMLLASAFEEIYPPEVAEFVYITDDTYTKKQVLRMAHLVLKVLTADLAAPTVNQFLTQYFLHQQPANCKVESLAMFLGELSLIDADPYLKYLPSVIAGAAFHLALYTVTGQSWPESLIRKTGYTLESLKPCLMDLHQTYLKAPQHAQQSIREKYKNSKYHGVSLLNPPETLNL
Change | normalised enrichment score
PSKCRNLFGPVDH [A3K] | 0.263
PSACRNLFGPVVH [D12V] | 3.4
PSACRNLKGPVDH [F8K] | 0.744
ISACRNLFGPVDH [P1I] | 3.88
PSAIRNLFGPVDH [C4I] | 1.36
PSACRNLFGVVDH [P10V] | 3.22
PSACRNLFGPIDH [V11I] | 4.26
PSACRNLFGPVDN [H13N] | 4.12

Other studies, line by line
Compound | target | observed | mode | concentration | relative to | endpoint | value
Nc1ncnc2c1cnn2-c1ccccc1 | RAC-alpha serine/threonine-protein kinase (AKT1, Homo sapiens, UniProt P31749) | enzyme activity | inhibitor | 0.5 µM | control | remaining activity | 103%
